{"data": "Measured values of several laboratories", "T1": "ssDNA, aptamer; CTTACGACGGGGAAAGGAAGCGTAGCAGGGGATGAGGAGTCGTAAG", "note": "Protocols differ between the studies behind these lines. “And” joins repeats or separate records; there may be more than shown. ± marks the error that the study gave.", "UniProt O76090, sequence (whole entry, unmodified, looked up)": "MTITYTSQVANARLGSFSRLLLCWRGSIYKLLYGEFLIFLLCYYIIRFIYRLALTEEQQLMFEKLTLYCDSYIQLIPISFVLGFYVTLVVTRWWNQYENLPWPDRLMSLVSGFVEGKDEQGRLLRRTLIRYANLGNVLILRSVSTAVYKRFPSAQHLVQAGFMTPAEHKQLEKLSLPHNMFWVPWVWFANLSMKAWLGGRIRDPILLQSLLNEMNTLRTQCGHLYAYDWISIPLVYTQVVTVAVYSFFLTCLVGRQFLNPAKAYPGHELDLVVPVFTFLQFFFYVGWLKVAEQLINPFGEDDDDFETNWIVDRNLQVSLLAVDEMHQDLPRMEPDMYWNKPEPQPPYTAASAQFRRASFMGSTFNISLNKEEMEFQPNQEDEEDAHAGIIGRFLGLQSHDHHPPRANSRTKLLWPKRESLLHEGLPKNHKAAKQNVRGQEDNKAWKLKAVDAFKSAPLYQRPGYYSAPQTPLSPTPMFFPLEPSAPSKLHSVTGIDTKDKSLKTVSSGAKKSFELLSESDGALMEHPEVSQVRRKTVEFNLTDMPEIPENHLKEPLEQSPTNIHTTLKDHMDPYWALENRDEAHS", "UniProt Q04609, sequence (whole entry, looked up)": "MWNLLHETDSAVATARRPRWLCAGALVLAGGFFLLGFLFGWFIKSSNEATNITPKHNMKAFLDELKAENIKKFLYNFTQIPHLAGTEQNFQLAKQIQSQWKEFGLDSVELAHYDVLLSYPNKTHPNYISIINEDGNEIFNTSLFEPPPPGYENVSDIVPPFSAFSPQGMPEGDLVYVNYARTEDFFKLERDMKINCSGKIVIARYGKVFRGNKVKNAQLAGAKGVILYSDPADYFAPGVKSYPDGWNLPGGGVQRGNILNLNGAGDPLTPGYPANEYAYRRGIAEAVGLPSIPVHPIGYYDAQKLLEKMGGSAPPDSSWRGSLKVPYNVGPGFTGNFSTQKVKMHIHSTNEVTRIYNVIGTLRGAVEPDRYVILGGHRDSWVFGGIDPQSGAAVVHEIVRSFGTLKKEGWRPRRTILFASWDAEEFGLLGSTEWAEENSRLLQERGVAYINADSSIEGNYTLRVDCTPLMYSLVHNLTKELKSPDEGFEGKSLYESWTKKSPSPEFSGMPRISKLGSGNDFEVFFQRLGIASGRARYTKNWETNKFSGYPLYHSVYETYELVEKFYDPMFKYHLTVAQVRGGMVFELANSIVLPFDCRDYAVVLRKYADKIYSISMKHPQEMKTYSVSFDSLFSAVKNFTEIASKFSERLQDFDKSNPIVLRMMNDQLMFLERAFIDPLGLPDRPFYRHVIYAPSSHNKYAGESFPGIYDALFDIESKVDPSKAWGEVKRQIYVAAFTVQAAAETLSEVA", "UniProt Q62351, sequence (whole entry, looked up)": "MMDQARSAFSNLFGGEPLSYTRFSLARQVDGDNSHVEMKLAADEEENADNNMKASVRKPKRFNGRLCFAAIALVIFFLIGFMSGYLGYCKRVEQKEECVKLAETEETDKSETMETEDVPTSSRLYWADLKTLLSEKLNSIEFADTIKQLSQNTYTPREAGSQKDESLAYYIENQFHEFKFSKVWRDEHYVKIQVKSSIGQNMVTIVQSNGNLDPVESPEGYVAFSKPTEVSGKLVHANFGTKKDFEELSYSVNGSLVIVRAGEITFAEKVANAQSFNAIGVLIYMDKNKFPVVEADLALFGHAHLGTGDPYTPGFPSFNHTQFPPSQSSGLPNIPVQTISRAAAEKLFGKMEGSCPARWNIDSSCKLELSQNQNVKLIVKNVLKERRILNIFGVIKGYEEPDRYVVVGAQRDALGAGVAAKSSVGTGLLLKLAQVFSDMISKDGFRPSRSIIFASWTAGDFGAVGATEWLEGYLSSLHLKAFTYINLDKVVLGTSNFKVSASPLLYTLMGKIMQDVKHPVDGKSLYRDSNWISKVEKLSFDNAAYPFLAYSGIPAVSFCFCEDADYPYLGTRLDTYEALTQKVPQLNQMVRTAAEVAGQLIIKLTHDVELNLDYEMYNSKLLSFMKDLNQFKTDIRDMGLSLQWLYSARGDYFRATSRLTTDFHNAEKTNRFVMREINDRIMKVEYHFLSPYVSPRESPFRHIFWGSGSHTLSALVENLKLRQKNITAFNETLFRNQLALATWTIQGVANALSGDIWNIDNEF", "UniProt P31749, sequence (whole entry, looked up)": "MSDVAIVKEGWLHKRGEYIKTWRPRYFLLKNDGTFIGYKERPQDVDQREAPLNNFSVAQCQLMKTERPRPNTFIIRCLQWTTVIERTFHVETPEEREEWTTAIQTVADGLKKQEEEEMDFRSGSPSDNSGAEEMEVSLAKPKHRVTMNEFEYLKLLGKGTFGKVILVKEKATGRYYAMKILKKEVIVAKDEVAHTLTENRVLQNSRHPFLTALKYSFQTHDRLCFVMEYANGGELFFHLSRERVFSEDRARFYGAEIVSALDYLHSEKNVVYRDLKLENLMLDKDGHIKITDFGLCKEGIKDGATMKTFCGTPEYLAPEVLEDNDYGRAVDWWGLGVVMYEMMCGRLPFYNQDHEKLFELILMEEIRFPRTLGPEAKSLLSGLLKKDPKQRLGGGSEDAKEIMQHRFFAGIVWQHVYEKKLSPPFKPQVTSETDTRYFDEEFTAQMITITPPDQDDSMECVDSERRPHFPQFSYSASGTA", "UniProt Q86X55, sequence (whole entry, looked up)": "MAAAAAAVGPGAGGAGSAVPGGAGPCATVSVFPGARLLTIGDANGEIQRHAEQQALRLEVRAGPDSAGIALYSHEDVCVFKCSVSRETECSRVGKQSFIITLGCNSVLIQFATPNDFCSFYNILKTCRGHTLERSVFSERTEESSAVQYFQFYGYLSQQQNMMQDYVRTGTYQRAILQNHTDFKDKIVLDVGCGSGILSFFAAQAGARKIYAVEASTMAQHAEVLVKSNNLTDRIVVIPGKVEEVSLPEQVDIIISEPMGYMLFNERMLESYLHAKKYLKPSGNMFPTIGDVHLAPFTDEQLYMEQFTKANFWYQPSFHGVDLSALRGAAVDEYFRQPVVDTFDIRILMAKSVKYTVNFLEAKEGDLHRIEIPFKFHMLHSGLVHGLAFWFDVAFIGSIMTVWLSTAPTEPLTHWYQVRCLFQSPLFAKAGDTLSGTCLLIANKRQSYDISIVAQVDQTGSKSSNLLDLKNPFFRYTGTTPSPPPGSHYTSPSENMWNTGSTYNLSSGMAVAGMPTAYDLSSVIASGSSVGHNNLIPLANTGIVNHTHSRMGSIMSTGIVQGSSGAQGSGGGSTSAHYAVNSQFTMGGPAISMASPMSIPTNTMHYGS", "UniProt Q9Y3R4, sequence (whole entry, looked up)": "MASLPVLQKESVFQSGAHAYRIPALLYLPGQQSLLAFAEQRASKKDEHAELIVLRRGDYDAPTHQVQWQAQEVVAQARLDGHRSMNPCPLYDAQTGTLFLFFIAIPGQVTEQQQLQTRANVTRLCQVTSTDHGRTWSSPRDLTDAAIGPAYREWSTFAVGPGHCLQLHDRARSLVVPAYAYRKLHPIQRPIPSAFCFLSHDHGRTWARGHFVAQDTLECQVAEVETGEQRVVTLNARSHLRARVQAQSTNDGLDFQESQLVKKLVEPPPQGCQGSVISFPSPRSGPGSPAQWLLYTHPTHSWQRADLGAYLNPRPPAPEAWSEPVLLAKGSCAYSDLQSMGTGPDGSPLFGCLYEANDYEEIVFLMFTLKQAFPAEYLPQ"}
{"Compound": "O=C(Nc1ccc([C@H]2[C@@H](F)[C@@H](F)C[C@@H](F)[C@H]2F)cc1)c1cn[nH]c1", "test system": "mouse liver microsomes", "conditions": "1 µM", "measurement": "hepatic clearance", "value": "82 mL/min/kg"}
{"Compound": "CC(C)[C@H](NC(=O)[C@@H](NC(=O)CCCc1cn(CC(O)CN2CCN(CC(=O)O)CCN(CC(=O)O)CCN(CC(=O)O)CC2)nn1)[C@@H](C)O)C(=O)N[C@@H](CCCNC(=N)N)C(=O)N[C@H](C(=O)N[C@@H](CO)C(=O)N[C@@H](C)C(=O)N[C@@H](CC(=O)O)C(=O)O)[C@@H](C)O (stereo partly shown)", "test system": "healthy male humans, plasma", "conditions": "intravenous, 0.04 mmol/kg", "measurement": "volume of distribution", "value": "0.177 ± 0.041 L/kg"}
{"Compound": "O=c1nc(SCc2cc(F)cc(C(F)(F)F)c2)nc(SCc2csc3ccc(Cl)cc23)[nH]1", "tested on": "TOP2A (Homo sapiens, UniProt P11388)", "test": "decatenation", "conditions": "7.8 µM, replicate 2", "measurement": "decatenated DNA", "value": "91.9%"}
{"Compound": "CN1CCN(c2cc(-c3ccncc3)c(-c3ccc4ccccc4c3)nn2)CC1", "tested on": "CCR2 (Homo sapiens, UniProt P41597)", "test": "agonist, FLIPR", "conditions": "12.5 µM", "measurement": "activation", "value": "0.7%"}
{"Compound": "Cc1cc(-c2ccnc3[nH]cc(F)c23)cc(F)c1[C@@]1(O)[C@H](C)CN(C2CCS(=O)(=O)CC2)C[C@@H]1C", "tested on": "AKT1 (Homo sapiens, UniProt P31749)", "test": "ATP/ADP probe binding, KiNativ", "test system": "HEK293T lysate", "conditions": "10 µM, ATP loop peptide", "measurement": "probe labelling inhibition", "value": "-40.5%"}
{"Compound": "CC1(C)CN(CCCCC(=O)N[C@H](Cc2ccccc2)C(=O)N[C@H](Cc2ccccc2)C(=O)N[C@@H](CCCCNC(=O)CCCCCCC(=O)NCCCC[C@H](NC(=O)N[C@@H](CCC(=O)O)C(=O)O)C(=O)O)C(=O)O)CC[N]2CC(C)(C)[S][Tc]2(=[O])[S]1 (stereo partly shown) [technetium-99m labelled]", "tested on": "FOLH1 (Homo sapiens, UniProt Q04609)", "test": "radioligand, saturation binding", "test system": "LNCaP", "conditions": "1 h, 37 °C, together with: [99mTc]TcO-6", "measurement": "Bmax", "value": "4.7 ± 0.2 pmol/mg"}
{"Compound": "CN(CCC#N)C(=O)c1ccc([C@H]2[C@@H](F)[C@@H](F)C[C@@H](F)[C@H]2F)cc1", "test": "liver microsome stability", "test system": "human liver microsomes", "conditions": "1 µM, without NADPH", "measurement": "hepatic clearance", "value": "3.9 mL/min/kg"}
{"Compound": "[N-]=[N+]=NCC(=O)N[C@H]1[C@H]([C@H](O)[C@H](O)CO)O[C@@](O[C@H]2[C@@H](O)[C@@H](CO)O[C@@H](Oc3ccc([N+](=O)[O-])cc3)[C@@H]2O)(C(=O)O)C[C@@H]1O", "tested on": "Sialidase-2 (Homo sapiens, UniProt Q9Y3R4)", "test": "substrate", "conditions": "10 min, pH 5.0, 37 °C", "measurement": "Vmax", "value": "0.001 ± 0.0001 mM/s"}
{"Compound": "Nc1ncnc2c1ncn2[C@@H]1O[C@H](COP(=O)(O)OP(=O)(O)OP(=O)(O)O)[C@@H](O)[C@H]1O", "tested on": "T1, ssDNA, aptamer", "test": "ITC", "measurement": "Kd", "value": "701 nM"}
{"Compound": "CC[C@@H](C)[C@@H](NC(=O)[C@@H](Cc1ccc(O)cc1)NC(=O)[C@H]1CCCN1C(=O)[C@@H](CCCNC(=N)N)NC(=O)[C@H](N)Cc1c[nH]cn1)C(=O)N[C@H](C)C(=O)N[C@H](Cc1c[nH]cn1)C(=O)N[C@H](CCCNC(=N)N)C(=O)N[C@@H](C(=O)N[C@H](Cc1ccc(O)cc1)C(=O)N[C@H](CO)C(=O)N[C@H](Cc1ccccc1)C(N)=O)C(C)C", "tested on": "Transferrin receptor protein 1 (Tfrc, Mus musculus, UniProt Q62351)", "test": "flow cytometry", "test system": "DC2.4", "conditions": "2 h, pH 7.4, unit not given", "how to read": "baseline: 0 h", "measurement": "surface TFRC expression", "value": 0.851}
{"Compound": "Nc1ccc(C(=O)O)cc1", "tested on": "BEST1, with wild-type BEST1 (Homo sapiens, UniProt O76090, A243T)", "test": "whole-cell patch clamp", "test system": "HEK293 co-expressing WT and A243T mutant", "conditions": "concentration not given, membrane potential -40 mV", "measurement": "current density", "value": "-11.1 pA/pF and -8.37 pA/pF and -9.84 pA/pF and -3.5 pA/pF and -12.2 pA/pF and -2.3 pA/pF"}
{"Compound": "C(/C=C/c1sc2c3ccccc3ccc2[n+]1CCCc1ccccc1)=C1/Sc2c(ccc3ccccc23)N1CCCc1ccccc1.[I-]", "tested on": "CARM1 (Homo sapiens, UniProt Q86X55)", "test": "inhibitor, filter binding", "conditions": "together with: histone H3.3 substrate", "measurement": "Hill coefficient", "value": 1.79}
{"Compound": "CC[C@H](C)[C@H](NC(=O)[C@H](Cc1ccccc1)NC(=O)[C@H](CCC(=O)O)NC(=O)[C@H](CCCNC(=N)N)NC(=O)[C@H](C)NC(=O)[C@H](C)NC(=O)[C@H](CCC(N)=O)NC(=O)[C@H](CCC(=O)O)NC(=O)[C@H](CCC(=O)O)NC(=O)[C@H](CC(C)C)NC(=O)[C@H](Cc1ccc(O)cc1)NC(=O)[C@H](CO)NC(=O)[C@H](CO)NC(=O)[C@@H](NC(=O)[C@H](CC(=O)O)NC(=O)[C@H](CO)NC(=O)[C@@H](NC(=O)[C@H](Cc1ccccc1)NC(=O)[C@@H](NC(=O)CNC(=O)[C@H](CCC(=O)O)NC(=O)[C@H](C)NC(=O)CCc1cnc[nH]1)[C@@H](C)O)[C@@H](C)O)C(C)C)C(=O)N[C@@H](C)C(=O)N[C@@H](Cc1c[nH]c2ccccc12)C(=O)N[C@@H](CC(C)C)C(=O)N[C@H](C(=O)N[C@@H](CCCNC(=N)N)C(=O)NCC(=O)N[C@@H](CCCNC(=N)N)C(=O)N[C@@H](CCCCNC(=O)COCCOCCNC(=O)COCCOCCNC(=O)CC[C@H](NC(=O)CCCCCCCCCCCCCCCCC(=O)O)C(=O)O)C(=O)NCC(=O)NCC(=O)N[C@@H](CO)C(=O)N[C@@H](CCCCNc1c(NCCCCCN(O)C(=O)CCC(=O)NCCCCCN(O)C(=O)CCC(=O)NCCCCCN(O)C(C)=O)c(=O)c1=O)C(=O)NCC(=O)NCC(=O)N[C@@H](CO)C(=O)N[C@@H](CCCCNc1c(NCCCCCN(O)C(=O)CCC(=O)NCCCCCN(O)C(=O)CCC(=O)NCCCCCN(O)C(C)=O)c(=O)c1=O)C(=O)NCC(=O)NCC(=O)N[C@@H](CO)C(=O)N[C@@H](CCCCNc1c(NCCCCCN(O)C(=O)CCC(=O)NCCCCCN(O)C(=O)CCC(=O)NCCCCCN(O)C(C)=O)c(=O)c1=O)C(=O)NCC(=O)NCC(=O)N[C@@H](CO)C(=O)N[C@@H](CCCCNc1c(NCCCCCN(O)C(=O)CCC(=O)NCCCCCN(O)C(=O)CCC(=O)NCCCCCN(O)C(C)=O)c(=O)c1=O)C(=O)O)C(C)C", "tested on": "GLP1R (Homo sapiens, UniProt P43220)", "test": "agonist, CRE luciferase reporter", "test system": "BHK cells", "conditions": "Zr-loaded DFO conjugate, together with: 1% HSA", "how to read": "baseline: parent peptide", "measurement": "fold potency loss", "value": 3.6}
{"note": "For quick reference, copied from above:"}
{"Compound": "O=C(Nc1ccc([C@H]2[C@@H](F)[C@@H](F)C[C@@H](F)[C@H]2F)cc1)c1cn[nH]c1", "test system": "mouse liver microsomes", "conditions": "1 µM", "measurement": "hepatic clearance", "value": "82 mL/min/kg"}
